Results gathered from unrelated publications.
Parts stem from different laboratories: compare values within a part only.
Sequence of UniProt Q8NEV4 (whole entry, looked up): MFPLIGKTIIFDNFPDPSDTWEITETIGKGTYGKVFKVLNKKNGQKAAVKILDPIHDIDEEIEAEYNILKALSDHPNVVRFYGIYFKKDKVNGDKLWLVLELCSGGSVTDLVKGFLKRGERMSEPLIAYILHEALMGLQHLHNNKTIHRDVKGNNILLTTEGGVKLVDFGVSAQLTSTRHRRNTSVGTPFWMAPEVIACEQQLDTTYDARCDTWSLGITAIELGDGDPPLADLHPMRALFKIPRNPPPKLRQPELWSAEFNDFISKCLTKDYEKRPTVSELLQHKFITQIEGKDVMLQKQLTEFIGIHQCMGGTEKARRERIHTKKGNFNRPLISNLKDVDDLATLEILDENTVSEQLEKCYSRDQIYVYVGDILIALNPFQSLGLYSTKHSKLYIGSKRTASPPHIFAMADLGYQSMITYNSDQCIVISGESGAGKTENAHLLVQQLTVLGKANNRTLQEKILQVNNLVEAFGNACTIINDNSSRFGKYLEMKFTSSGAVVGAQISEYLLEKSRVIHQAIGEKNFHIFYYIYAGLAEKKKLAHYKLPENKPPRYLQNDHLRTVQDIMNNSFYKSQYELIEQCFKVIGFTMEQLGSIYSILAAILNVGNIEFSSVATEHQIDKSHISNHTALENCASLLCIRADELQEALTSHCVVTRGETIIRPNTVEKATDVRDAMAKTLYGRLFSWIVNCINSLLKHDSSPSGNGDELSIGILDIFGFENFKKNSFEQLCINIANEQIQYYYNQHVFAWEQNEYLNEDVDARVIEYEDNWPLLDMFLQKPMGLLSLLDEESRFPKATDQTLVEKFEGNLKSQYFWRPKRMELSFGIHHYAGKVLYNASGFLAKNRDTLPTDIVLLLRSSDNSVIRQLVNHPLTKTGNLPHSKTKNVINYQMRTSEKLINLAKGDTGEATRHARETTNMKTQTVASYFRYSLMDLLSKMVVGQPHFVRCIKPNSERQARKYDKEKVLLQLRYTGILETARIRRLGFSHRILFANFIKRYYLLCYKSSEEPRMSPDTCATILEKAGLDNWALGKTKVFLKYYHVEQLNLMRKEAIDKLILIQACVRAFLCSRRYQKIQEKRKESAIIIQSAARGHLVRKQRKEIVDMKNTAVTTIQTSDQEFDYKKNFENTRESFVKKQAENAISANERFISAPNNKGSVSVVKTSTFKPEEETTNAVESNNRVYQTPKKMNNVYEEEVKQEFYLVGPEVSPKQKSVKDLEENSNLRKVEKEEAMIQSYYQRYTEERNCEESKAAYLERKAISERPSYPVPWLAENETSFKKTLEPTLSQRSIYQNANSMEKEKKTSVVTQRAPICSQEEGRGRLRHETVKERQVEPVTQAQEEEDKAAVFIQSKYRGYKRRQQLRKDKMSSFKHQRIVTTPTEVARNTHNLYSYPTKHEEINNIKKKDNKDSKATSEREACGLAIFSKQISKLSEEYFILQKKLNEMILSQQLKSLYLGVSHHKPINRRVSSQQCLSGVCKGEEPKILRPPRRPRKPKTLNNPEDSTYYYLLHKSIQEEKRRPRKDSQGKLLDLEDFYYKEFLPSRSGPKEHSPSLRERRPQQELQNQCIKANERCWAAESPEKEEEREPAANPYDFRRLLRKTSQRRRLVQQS
Sequence of UniProt Q9Y2U5 (whole entry, looked up): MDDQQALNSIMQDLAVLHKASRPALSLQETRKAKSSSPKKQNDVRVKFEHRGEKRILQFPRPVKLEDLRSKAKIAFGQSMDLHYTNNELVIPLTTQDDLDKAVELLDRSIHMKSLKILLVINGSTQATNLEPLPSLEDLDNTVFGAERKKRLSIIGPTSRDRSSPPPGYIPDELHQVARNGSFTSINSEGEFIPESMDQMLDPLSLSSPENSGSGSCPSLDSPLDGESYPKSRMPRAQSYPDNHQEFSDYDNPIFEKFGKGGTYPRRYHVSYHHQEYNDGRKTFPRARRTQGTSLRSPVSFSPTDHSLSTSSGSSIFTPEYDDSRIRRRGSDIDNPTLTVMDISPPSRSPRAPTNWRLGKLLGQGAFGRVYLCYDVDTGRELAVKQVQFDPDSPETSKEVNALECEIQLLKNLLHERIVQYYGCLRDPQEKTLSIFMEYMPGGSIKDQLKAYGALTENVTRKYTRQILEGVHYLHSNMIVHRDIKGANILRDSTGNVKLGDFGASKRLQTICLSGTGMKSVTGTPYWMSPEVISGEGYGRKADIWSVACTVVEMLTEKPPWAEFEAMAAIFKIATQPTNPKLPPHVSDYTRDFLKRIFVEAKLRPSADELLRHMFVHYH
Sequence of UniProt Q02779 (whole entry, looked up): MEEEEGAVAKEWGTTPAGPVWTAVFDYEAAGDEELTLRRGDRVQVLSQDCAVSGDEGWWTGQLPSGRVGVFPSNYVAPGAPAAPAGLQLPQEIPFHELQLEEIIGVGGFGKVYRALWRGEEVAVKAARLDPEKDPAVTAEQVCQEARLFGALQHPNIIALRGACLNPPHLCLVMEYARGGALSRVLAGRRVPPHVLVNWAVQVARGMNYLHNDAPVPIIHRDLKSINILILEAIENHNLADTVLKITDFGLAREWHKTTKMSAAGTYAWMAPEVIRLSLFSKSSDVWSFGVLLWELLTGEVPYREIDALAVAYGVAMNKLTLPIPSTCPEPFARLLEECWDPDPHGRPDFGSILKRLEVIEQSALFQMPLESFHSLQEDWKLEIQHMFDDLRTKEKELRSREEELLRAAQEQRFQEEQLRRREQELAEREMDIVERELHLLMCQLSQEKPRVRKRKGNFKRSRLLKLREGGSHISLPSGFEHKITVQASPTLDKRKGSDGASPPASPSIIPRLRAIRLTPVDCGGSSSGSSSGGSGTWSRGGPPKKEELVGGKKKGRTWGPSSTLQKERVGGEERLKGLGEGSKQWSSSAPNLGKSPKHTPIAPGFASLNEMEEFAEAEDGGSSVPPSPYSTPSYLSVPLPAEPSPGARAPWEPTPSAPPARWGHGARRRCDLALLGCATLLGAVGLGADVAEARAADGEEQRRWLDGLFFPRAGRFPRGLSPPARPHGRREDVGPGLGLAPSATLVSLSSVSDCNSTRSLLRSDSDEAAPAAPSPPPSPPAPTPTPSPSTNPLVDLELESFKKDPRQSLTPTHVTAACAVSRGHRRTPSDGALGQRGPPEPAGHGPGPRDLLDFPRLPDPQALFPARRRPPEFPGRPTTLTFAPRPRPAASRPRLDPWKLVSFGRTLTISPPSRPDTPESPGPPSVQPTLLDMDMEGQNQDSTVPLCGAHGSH
Sequence of UniProt O00238 (whole entry, looked up): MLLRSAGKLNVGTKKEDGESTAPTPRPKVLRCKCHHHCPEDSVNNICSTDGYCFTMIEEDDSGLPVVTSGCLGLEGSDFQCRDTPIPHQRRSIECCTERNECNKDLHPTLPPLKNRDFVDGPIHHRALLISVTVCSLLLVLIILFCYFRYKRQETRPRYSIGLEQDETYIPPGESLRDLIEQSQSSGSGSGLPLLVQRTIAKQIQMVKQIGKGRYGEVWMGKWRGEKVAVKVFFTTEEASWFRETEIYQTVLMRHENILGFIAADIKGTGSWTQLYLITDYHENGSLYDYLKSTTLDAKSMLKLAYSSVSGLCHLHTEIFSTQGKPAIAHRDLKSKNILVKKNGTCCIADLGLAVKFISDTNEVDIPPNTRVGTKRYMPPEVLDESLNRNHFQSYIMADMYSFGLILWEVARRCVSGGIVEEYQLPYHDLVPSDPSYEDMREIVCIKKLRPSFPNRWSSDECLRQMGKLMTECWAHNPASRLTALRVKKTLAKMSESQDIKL
Sequence of UniProt P49841 (whole entry, looked up): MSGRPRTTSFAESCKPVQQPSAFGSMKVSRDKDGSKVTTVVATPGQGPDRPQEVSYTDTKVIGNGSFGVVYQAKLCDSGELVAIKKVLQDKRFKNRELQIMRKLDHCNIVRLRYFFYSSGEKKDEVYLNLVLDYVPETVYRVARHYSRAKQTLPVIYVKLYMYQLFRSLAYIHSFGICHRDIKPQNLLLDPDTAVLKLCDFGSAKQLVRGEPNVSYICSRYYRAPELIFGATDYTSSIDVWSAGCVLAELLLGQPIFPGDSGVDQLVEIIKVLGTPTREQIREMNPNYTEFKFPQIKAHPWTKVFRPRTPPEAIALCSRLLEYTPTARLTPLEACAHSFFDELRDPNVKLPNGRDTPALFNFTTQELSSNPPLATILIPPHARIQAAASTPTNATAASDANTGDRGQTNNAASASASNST

Set 1
SMILES: COc1cc(C(=O)N2CCC(N3CCN(C)CC3)CC2)ccc1Nc1ncc2c(n1)N(C)c1ccccc1C(=O)N2C
Method: KINOMEscan
Tested at: 10 µM
Relative to: DMSO control
Reading: lower = stronger binding
CSK — binding: 90%.
The binding was 95% (PAK1).
TBK1 — binding: 97%.
The binding was 100% (LYN).
The binding was 71% (MAP4K3).
It gave 89% for binding (EPHA6).
The binding was 97% (MAPKAPK5).
The binding was 100% (HIPK4).
For HUNK: binding read 100%.
The binding was 95% (MAP3K1).
It gave 94% for binding (MYO3A).
For LATS1: binding read 100%.
MAST1 — binding: 100%.
For PIK4CB: binding read 95%.
It gave 97% for binding (ABL2).
It gave 100% for binding (EPHB2).
It gave 88% for binding (HIPK2).

Set 2
Target: Calcium/calmodulin-dependent protein kinase type II subunit alpha (CAMK2A, Homo sapiens, UniProt Q9UQM7)
Sequence of UniProt Q9UQM7 (whole entry, looked up): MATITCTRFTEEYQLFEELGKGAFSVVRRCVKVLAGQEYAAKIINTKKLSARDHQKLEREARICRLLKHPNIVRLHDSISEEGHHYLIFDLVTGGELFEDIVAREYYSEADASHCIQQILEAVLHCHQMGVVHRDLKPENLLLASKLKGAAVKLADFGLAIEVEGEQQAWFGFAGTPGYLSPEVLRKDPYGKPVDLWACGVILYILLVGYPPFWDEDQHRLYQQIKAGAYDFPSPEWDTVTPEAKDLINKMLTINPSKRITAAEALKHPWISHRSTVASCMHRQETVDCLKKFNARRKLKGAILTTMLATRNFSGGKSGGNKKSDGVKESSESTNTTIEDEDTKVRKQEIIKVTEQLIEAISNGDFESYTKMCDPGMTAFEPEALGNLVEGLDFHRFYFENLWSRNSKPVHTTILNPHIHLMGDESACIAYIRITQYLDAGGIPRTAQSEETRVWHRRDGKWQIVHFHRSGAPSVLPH
Observed: enzyme activity
Action: inhibitor
Tested at: 0.5 µM
Relative to: control
CC(C)c1nn(-c2c(Cl)cccc2Cl)c2nc(Cc3ccc(OCCO)cc3)[nH]c(=O)c12 has a remaining activity of 106%.
For CN(C)CCCn1cc(C2=C(c3c[nH]c4ccccc34)C(=O)NC2=O)c2ccccc21, the remaining activity was 35.2%.
With CC(C)[C@H](CO)Nc1nc(Nc2cccc(Cl)c2)c2ncn(C(C)C)c2n1 the remaining activity was 101%.
For Cn1cc(/C=C2\C(=O)Nc3ccc(S(N)(=O)=O)cc32)c2ccccc21, the remaining activity was 57.6%.
COc1cc2ncc(-c3ccccc3)nc2cc1OC gave a remaining activity of 99.5%.
The remaining activity of Cn1cnc2cc3c(Nc4cccc(Br)c4)ncnc3cc21 is reported as 102%.
With COc1ccc(Cl)cc1NC(=O)Nc1cc(C)nc2ccccc12 the remaining activity was 101%.
Nc1[nH]nc2nnc(-c3c(-c4ccccc4)nn4ccccc34)cc12 has a remaining activity of 102%.
O=C1NC(=O)/C(=C/c2ccc3nccnc3c2)S1 gave a remaining activity of 92.3%.
The remaining activity of CC(=O)O/N=C1/C(c2c(O)[nH]c3cc(Br)ccc23)=Nc2ccccc21 is reported as 89.2%.
The remaining activity of O=C(Nc1ccc(Cl)cc1)c1ccccc1NCc1ccncc1 is reported as 99.9%.
COc1cc2ncnc(Nc3ccc(OCc4ccccc4)cc3)c2cc1OC has a remaining activity of 107%.
O=c1cc(N2CCOCC2)oc2c1ccc1ccccc12 gave a remaining activity of 99.4%.
CCOc1cc2ncnc(Nc3cccc(Br)c3)c2cc1OCC gave a remaining activity of 103%.
The remaining activity of COc1ccc(-c2cnc3c(-c4ccsc4)cnn3c2)cc1 is reported as 96.6%.
The remaining activity of CCN1/C(=C/C(C)=O)Sc2ccc(OC)cc21 is reported as 103%.
With Cc1nc(Nc2ncc(C(=O)Nc3c(C)cccc3Cl)s2)cc(N2CCN(CCO)CC2)n1 the remaining activity was 103%.
COc1cc2ncnc(N3CCN(C(=O)Nc4ccc(Oc5ccccc5)cc4)CC3)c2cc1OC gave a remaining activity of 89.9%.
For CCC(=O)Nc1ccc2ncnc(Nc3cccc(Br)c3)c2c1, the remaining activity was 85.7%.

Set 3
SMILES: Cc1ccc(NC(=O)c2ccnc(C(F)(F)F)c2)cc1-c1cc(OCCO)nc(N2CCOCC2)c1
Tested at: 1 µM
The remaining binding was 99% (GSK3B (Homo sapiens, UniProt P49841); competitive binding panel; relative to: vehicle).
STK24 (Homo sapiens, UniProt Q9Y6E0); competitive binding panel, measured: MST3; relative to: vehicle — remaining binding: 100%.
For IKBKE (Homo sapiens, UniProt Q14164); competitive binding; IKK-epsilon: remaining binding read 94%.
It gave 98% for remaining binding (Myosin-IIIa (MYO3A, Homo sapiens, UniProt Q8NEV4); competitive binding panel; relative to: vehicle).
It gave 75% for remaining binding (MAP3K2 (Homo sapiens, UniProt Q9Y2U5); competitive binding panel; relative to: vehicle).
MAP3K10 (Homo sapiens, UniProt Q02779); competitive binding panel, measured: MLK2; relative to: vehicle — remaining binding: 94%.
ALK (Homo sapiens, UniProt Q9UM73); competitive binding panel; relative to: vehicle — remaining binding: 89%.
PDGFRB (Homo sapiens, UniProt P09619); competitive binding panel; relative to: vehicle — remaining binding: 0.1%.
It gave 100% for remaining binding (PI4KB (Homo sapiens, UniProt Q9UBF8); competitive binding panel, measured: PIK4CB; relative to: vehicle).
The remaining binding was 100% (BMPR1B (Homo sapiens, UniProt O00238); competitive binding panel; relative to: vehicle).
MARK1 (Homo sapiens, UniProt Q9P0L2); competitive binding panel; relative to: vehicle — remaining binding: 100%.

Set 4
Target: Eukaryotic initiation factor 4A-III (Homo sapiens, UniProt P38919)
Sequence of UniProt P38919 (whole entry, looked up): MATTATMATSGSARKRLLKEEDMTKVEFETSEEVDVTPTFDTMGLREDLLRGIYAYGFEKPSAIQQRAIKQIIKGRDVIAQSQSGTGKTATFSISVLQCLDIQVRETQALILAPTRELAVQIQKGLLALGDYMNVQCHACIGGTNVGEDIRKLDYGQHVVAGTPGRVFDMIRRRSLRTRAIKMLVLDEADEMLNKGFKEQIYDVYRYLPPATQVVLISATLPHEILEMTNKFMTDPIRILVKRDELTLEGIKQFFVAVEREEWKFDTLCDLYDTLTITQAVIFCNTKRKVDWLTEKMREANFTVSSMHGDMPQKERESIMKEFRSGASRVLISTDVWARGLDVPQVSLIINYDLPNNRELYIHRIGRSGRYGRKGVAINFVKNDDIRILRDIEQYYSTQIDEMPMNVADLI
Observed: RNA clamping
Method: fluorescence polarization
Tested at: concentration not given
Notes: mean of two replicates
Together with: FAM-labelled poly r(AG)8 RNA
Under “fluorescence polarization change”, COC(=O)CCCn1c(-c2ccccc2)nc2c(c1=O)[C@@H](c1ccccc1)[C@]1(c3ccc(OC)cc3)Oc3cc(OC)cc(OC)c3[C@]21O is recorded as 14.6 mP.
COc1ccc([C@]23[C@@H](c4ccccc4)C[C@@H](O)[C@@]2(O)c2c(F)cccc2N3C)cc1: “fluorescence polarization change” 5.6 mP.
Under “fluorescence polarization change”, COc1ccc([C@@]23Oc4cc(OC)cc(OC)c4[C@]2(O)[C@H](O)[C@H](C(=O)c2ccco2)[C@H]3c2cccc(OC)c2)cc1 is recorded as 16 mP.
Under “fluorescence polarization change”, COc1cc(OC)c2c(c1)O[C@@]1(c3ccc(OC)c(O)c3)[C@H](c3ccccc3)[C@@H](C(=O)N(C)OC)[C@@H](O)[C@@]21O is recorded as 27.3 mP.
Under “fluorescence polarization change”, COC(=O)[C@H]1C(=O)[C@@]2(NCC3CCNCC3)c3c(OC)cc(OC)cc3O[C@@]2(c2ccc(OC)cc2)[C@@H]1c1ccccc1 is recorded as 5.6 mP.
For COC(=O)[C@H]1C(=O)[C@@]2(NCc3cccnc3)c3c(OC)cc(OC)cc3O[C@@]2(c2ccc(OC)cc2)[C@@H]1c1ccccc1, “fluorescence polarization change” read 1.7 mP.

Further values, each from its own experiment
With CNC(=O)Nc1ccc2c(c1)CC[C@]21OC(=O)N(CC(=O)N(Cc2ccc(F)cc2)[C@@H](C)C(F)(F)F)C1=O the inhibition was 15.5% (D(2) dopamine receptor (DRD2, Homo sapiens, UniProt P14416); ligand displacement; 10 µM).

A few entries again (set 4):
For COC(=O)[C@H]1C(=O)[C@@]2(NCc3cccnc3)c3c(OC)cc(OC)cc3O[C@@]2(c2ccc(OC)cc2)[C@@H]1c1ccccc1, “fluorescence polarization change” read 1.7 mP.
Under “fluorescence polarization change”, COc1cc(OC)c2c(c1)O[C@@]1(c3ccc(OC)c(O)c3)[C@H](c3ccccc3)[C@@H](C(=O)N(C)OC)[C@@H](O)[C@@]21O is recorded as 27.3 mP.
Under “fluorescence polarization change”, COC(=O)[C@H]1C(=O)[C@@]2(NCC3CCNCC3)c3c(OC)cc(OC)cc3O[C@@]2(c2ccc(OC)cc2)[C@@H]1c1ccccc1 is recorded as 5.6 mP.
Under “fluorescence polarization change”, COC(=O)CCCn1c(-c2ccccc2)nc2c(c1=O)[C@@H](c1ccccc1)[C@]1(c3ccc(OC)cc3)Oc3cc(OC)cc(OC)c3[C@]21O is recorded as 14.6 mP.
Under “fluorescence polarization change”, COc1ccc([C@@]23Oc4cc(OC)cc(OC)c4[C@]2(O)[C@H](O)[C@H](C(=O)c2ccco2)[C@H]3c2cccc(OC)c2)cc1 is recorded as 16 mP.
COc1ccc([C@]23[C@@H](c4ccccc4)C[C@@H](O)[C@@]2(O)c2c(F)cccc2N3C)cc1: “fluorescence polarization change” 5.6 mP.
